Published values collected from several papers.
Each numbered part is a random draw from the data of one study; scales do not carry over between parts. Positions count from the first letter of the parent shown.

Series 1 — technique: protein binding microarray; molecule type: double-stranded DNA, one strand shown; sample: in vitro; tested at: not given; baseline: not given; reading: higher = stronger binding
Target: Histone acetyltransferase KAT6A, both winged helices, GST fusion (KAT6A, Homo sapiens, UniProt Q92794, residues 1-181)
Notes: 8-mer, flanks averaged, mean of 2 arrays, mostly near background
Residues (chain): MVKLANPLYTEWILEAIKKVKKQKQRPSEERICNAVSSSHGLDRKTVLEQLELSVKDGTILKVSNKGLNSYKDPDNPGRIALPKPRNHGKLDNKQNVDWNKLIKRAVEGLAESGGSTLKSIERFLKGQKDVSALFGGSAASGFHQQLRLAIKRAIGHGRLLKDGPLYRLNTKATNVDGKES
Sequence | E-score
ACGAGAAT | -0.109
AATCACCT | -0.12
AAGAAGTA | -0.122
AATAAAGC | -0.0165
CATAGGGA | -0.164
ACAAAGAT | -0.0951
CAGTCGGA | 0.0698
AGGAAGAG | -0.118

Series 2 — target: NFE2L1, bZIP domain (human); technique: DHFR protein complementation; sample: yeast; baseline: wild-type JUN-FOS pair; reading: higher = stronger binding
Notes: single substitutions, most at no-binding floor
Starting sequence: JUN, bZIP domain (human); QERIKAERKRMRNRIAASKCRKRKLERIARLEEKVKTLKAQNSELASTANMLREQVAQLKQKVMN; partner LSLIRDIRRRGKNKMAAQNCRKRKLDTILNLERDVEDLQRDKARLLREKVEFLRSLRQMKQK
Substitution | binding fitness [natural log]
E54D | -1.48
K39F | -1.55
E54V | -1.41
V35K | -1.54
T48C | -1.51
V35W | -1.31
S43V | -1.37
V56G | -1.52

Series 3 — technique: EMSA with sequencing; molecule type: double-stranded DNA, one strand shown; sample: in vitro; tested at: 10 and 20 nM; baseline: negative control set to 0; reading: higher = stronger binding
Target: Hepatocyte nuclear factor 3-alpha (Foxa1, Mus musculus, UniProt P35582, residues 1-468, full length assumed)
Notes: whole designed probe, mean of two concentrations, ends assumed
Residues (chain): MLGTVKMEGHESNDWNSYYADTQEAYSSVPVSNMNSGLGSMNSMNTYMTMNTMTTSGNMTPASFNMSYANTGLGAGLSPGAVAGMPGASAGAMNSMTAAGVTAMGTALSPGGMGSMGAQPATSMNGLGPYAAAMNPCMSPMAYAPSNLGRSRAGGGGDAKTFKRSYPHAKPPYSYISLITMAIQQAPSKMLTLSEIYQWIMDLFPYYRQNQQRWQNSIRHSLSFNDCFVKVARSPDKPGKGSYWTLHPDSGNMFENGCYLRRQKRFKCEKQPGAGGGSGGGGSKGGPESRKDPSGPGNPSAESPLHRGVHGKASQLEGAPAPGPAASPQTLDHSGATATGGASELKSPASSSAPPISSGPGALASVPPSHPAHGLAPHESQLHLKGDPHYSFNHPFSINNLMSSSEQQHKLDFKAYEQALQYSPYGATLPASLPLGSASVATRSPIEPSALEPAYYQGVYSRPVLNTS
Sequence | normalised bound fraction
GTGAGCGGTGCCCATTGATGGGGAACAAAGAGAAAAATAAATATCATCATGGACTTTAATGTGCACAGAAAATAAAATGTTCAATAAAAAATATTAATTATTTCTAGTTTCATGCTTTCTTGTTTACACAGGTAATATATTTCAAAATATTTTATTTACCTTTAAAATGAAAATACTAAAAAATGTATGAGAAAAGAATAGAGTAAAGTCAAGATGCTTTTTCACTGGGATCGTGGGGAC | 0.469 ratio
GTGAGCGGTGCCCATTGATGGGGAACTCTTCTGTTGATTTATTCAGAGATATCTAGTGTCTATATGCAAGCAATATATTAGTTGCGAAGTGTCTAGGAACAGTGAAAGACACAAGTCTCCTGTTTACTTAGATTATGCAGACTATTGTGAAAGAAAGGGACTGAAAGGAGTTCACTATACCGTAAAGGTAGTGTGGCGCAAGGTGAATGTGAGTCTGTATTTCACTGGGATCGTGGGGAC | 0.378 ratio
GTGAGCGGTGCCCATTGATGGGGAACTTTAGTACTTTAAAATTTTCCAAAGTGCTTTTCCTTGTCTTATTATAACAATTGCCAGCATTTGGTCAGCACTCTAGAGGTTATAAAGTACTTTGTGTACACTGTCTCCTAAGTCAACTCAGCAATGCTGTGGGTTATTATTACTTGACTCATTTTGCAGGCAAGGAAGCTAAGGTTCAGGAATGCTAAATGATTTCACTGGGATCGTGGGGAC | 0.251 ratio
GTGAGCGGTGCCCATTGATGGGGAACCCAATGGGGTAGGTCAGCCCCAGTGAACTCTCAAATGACCACTGAAGGAGGAAGTGAGTGCAGAGTGTGATACCACTCACATCCCAGCCCAGACTGTTTGCTCAGCTGGGAGGAGTGTTGCAATTCTTCTTCCTGCAGAGATAACACCCCTTCTCATGGCTTCAGGCATCACCTATCTCCTCTAGGCTGCGCTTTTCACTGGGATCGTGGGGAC | 0.192 ratio
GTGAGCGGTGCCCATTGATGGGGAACGAAGGAAATAATGGAGCCAACCATGCATATAACCTCAGGGAGAACATTCTAGGTAGAGGGAACAGCAAGTGCAAAGGCCCTGAAGTGGGGGTTTGTTTACCTTCGTTGCACAATTGCACACAGGCCAGTACAATTGGAATGGATGGGAAATGTAAAAGAGAGAAGTTGAAAAGGCCAGGTGCAGTGGCTCATGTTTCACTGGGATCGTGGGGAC | 0.41 ratio
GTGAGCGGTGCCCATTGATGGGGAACATCTTCCCCCTCTTCCTTGCCCCACCAGCTCACCTACGGGGGTTATTTGCACAAAGGAAAATAAATAAAGCCGGCATTCGTTAACCCTCTTCTGGCGCAAACTGCTGTTTGCTCTGCATCTAACATGGTCCTTACGCGACGCCAGGCTCCGGGAGAGCAAAGCACCGTGTCAGGCGCATGATCCGGGGTGGCCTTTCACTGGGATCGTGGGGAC | 0.381 ratio
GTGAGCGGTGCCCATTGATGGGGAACTTATATCTAGGCTACAGCATGGAGATAATTGATACAAATATTTTCTTATCATCATGGTCCTCAAAGAAAGTACCAGGCCTAATTTGCAATCTAAGTAAACATAAAAAGAAAGTTGTTTAGTAAAGCAATTTATTTCATAAGTCACTATTTCTTTCACCATAGCCATATACTATCTTATGCTTAGTAATGAATTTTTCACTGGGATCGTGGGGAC | 0.446 ratio
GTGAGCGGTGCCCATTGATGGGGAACTTAAGTATGTTCCACAAGGAATAGTAAGTGATGGCATTCACTGAAATAGGAACTTTATCTAAATGTTTCCATGCATCCTTATTGTTATAATGAGTAATTTATAACAGTGGCCATATTAAAAATAGAATTACCCTTTTTGAATTAAAATTATGTATTTGAATTAGAAAAAAAGCATTTGAAACATGTATTTTTATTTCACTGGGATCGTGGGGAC | 0.0702 ratio

Mixed results
Structure (SMILES) | sample | endpoint | result
CCC[C@H]1NC(=O)CSC[C@@H](C(=O)OCC)N(C)C(=O)[C@H](CC(C)C)NC(=O)[C@H](C)N(C)C(=O)[C@H](CC(C)C)NC(=O)[C@H](C)N(C)C(=O)[C@@H]2CCCN2C(=O)[C@H](CC(C)C)NC(=O)CN(C)C1=O | hydrocarbon/water | logD | -0.124

A few entries again (series 2):
Substitution | binding fitness [natural log]
T48C | -1.51
V35W | -1.31
S43V | -1.37
